# Measured values gathered from unrelated publications.
# Protocols differ between the studies behind these lines. Numbers after ± are the reported error.
# Sequence of UniProt P22303 (whole entry, looked up): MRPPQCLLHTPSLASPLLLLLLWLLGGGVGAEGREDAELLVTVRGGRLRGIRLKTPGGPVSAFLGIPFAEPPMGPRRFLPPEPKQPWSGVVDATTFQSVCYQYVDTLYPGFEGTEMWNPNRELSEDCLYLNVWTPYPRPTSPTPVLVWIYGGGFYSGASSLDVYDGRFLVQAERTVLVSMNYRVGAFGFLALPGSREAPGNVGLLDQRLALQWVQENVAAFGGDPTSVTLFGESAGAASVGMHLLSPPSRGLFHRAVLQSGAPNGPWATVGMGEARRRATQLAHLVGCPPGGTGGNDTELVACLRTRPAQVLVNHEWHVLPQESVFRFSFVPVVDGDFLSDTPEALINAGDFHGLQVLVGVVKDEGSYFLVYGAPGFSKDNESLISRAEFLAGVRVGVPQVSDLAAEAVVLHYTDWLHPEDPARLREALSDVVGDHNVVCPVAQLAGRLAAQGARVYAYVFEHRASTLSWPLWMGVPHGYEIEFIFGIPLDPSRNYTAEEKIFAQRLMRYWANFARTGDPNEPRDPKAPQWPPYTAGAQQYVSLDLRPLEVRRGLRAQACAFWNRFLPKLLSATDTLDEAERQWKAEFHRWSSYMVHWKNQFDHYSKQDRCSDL
# Sequence of UniProt Q08345 (whole entry, looked up): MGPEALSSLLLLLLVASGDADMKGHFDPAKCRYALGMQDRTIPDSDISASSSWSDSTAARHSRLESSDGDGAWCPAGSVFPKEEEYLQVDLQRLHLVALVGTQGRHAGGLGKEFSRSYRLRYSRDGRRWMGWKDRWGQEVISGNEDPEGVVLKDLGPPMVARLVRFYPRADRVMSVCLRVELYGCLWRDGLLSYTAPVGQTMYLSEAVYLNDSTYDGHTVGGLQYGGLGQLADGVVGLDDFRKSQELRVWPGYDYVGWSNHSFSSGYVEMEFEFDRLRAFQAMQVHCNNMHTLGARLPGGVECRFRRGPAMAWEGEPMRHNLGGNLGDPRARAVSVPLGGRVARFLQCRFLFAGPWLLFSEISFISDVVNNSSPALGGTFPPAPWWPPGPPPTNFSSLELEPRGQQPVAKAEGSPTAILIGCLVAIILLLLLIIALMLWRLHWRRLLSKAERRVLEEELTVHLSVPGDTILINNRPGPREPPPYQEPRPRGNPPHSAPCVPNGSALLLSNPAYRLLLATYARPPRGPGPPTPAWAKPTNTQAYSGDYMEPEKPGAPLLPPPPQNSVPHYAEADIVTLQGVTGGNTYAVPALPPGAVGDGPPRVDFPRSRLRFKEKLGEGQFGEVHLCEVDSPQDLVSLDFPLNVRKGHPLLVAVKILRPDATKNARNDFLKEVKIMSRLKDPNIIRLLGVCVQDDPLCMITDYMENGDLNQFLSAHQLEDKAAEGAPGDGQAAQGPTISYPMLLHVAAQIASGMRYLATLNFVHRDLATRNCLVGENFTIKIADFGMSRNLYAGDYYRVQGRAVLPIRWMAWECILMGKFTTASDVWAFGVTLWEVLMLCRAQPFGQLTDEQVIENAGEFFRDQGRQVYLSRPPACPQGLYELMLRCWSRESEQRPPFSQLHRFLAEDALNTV
# Sequence of UniProt P14416 (whole entry, looked up): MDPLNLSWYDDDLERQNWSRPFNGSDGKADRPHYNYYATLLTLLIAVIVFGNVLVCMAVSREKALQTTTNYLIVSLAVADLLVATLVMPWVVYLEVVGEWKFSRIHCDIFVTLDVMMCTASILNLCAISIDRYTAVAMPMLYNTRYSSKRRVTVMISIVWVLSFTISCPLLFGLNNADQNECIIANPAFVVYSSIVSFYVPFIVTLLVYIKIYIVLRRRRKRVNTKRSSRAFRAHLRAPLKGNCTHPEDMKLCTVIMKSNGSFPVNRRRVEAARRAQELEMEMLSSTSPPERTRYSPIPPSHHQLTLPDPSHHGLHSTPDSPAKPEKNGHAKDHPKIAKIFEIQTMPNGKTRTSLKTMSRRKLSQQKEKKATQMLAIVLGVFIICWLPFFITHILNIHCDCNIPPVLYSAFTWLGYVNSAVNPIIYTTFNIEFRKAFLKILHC
# Sequence of UniProt P08908 (whole entry, looked up): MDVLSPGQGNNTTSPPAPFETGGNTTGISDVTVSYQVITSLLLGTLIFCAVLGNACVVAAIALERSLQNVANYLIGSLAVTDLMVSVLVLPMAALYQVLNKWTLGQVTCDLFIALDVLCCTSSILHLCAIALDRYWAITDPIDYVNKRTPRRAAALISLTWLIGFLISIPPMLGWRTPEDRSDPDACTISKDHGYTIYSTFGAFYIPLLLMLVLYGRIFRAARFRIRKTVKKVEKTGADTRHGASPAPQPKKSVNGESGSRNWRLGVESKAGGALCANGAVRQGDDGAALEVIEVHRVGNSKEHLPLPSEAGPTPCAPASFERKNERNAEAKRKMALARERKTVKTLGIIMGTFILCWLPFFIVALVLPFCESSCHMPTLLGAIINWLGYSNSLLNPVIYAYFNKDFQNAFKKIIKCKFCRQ
# Sequence of UniProt P63086 (whole entry, looked up): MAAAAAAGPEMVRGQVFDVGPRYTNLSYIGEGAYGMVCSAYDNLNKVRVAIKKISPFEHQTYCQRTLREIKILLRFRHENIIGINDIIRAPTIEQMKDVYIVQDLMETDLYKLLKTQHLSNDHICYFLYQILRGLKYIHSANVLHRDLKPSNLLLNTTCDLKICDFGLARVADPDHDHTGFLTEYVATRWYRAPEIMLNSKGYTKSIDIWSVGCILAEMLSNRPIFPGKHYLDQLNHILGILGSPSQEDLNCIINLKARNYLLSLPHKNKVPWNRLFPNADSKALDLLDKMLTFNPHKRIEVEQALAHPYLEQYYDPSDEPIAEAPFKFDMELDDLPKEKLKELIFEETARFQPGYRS
# Sequence of UniProt Q07912 (whole entry, looked up): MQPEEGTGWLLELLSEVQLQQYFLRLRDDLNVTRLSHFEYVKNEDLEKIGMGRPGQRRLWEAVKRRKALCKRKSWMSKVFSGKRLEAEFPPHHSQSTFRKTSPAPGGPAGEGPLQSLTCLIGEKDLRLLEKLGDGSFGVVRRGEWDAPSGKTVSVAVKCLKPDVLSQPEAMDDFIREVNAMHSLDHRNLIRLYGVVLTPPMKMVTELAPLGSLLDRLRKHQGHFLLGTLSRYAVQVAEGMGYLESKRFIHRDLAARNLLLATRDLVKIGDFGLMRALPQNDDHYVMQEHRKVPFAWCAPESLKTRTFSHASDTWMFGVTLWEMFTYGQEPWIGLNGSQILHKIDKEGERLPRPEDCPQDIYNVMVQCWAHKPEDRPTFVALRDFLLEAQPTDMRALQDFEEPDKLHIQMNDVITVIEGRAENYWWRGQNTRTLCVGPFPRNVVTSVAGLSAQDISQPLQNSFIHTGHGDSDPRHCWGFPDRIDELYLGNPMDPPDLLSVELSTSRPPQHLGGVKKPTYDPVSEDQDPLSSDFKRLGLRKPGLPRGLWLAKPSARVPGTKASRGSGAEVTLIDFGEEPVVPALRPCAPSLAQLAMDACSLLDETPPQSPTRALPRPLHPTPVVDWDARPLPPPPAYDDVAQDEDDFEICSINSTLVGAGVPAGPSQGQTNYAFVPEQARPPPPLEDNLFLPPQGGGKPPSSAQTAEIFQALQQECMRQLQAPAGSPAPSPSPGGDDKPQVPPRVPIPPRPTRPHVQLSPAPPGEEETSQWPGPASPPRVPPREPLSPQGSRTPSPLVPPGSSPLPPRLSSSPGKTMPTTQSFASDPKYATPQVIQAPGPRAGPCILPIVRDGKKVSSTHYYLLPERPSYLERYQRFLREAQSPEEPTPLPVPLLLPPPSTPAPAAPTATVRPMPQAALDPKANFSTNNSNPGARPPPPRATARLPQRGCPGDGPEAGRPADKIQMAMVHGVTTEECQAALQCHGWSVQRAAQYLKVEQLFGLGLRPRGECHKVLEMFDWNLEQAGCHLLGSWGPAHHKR
# Sequence of UniProt P23977 (whole entry, looked up): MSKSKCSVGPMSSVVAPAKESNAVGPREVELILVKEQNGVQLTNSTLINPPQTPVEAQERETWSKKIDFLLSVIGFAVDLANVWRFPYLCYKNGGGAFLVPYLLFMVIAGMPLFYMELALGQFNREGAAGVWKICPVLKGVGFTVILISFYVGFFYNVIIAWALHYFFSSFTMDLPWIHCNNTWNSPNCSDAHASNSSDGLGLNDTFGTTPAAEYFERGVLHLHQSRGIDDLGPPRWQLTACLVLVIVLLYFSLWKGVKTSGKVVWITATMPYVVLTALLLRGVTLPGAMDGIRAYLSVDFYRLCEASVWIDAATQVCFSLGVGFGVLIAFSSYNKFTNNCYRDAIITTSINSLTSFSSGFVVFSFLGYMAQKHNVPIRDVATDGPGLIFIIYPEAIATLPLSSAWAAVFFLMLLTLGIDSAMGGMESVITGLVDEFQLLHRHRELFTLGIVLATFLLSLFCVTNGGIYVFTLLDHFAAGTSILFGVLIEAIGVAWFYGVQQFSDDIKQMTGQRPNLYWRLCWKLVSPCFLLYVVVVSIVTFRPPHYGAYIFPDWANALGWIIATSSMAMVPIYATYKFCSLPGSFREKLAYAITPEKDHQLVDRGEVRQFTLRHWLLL
# Sequence of UniProt P43235 (whole entry, looked up): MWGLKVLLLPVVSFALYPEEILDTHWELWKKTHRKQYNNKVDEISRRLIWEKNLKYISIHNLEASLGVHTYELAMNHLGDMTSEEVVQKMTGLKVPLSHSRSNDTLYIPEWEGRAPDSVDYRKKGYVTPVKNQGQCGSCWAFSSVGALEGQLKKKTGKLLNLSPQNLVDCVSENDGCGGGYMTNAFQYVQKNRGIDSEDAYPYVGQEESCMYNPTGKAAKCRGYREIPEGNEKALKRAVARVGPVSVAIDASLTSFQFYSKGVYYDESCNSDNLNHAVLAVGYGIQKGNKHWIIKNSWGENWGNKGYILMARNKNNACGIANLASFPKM
Structure (SMILES),tested on,assay,test system,setting,scale,measurement,result
CC(C)C[C@H](NC(=O)[C@H](CCCNC(=N)N)NC(=O)[C@H](CCCNC(=N)N)NC(=O)CNC(=O)[C@H](C)NC(=O)[C@@H](N)Cc1ccc(O)cc1)C(=O)N[C@@H](CCCCN)C(=O)NCC(=O)N[C@@H](C)C(=O)N[C@@H](CCCNC(=N)N)C(=O)N[C@@H](CCCNC(=N)N)C(=O)N[C@@H](CC(C)C)C(=O)N[C@@H](CCCCN)C(=O)N[C@@H](CC(C)C)C(=O)N[C@@H](CO)C(=O)N1CCC[C@H]1C(=O)O,"Mitogen-activated protein kinase 1 (Mapk1, Rattus norvegicus, UniProt P63086)","enzyme activity, inhibitor, fluorescence",,pH 7.4,,IC50,40900 nM
NCCOCCOCCNC(=O)Cc1ccc(Nc2nc(NCc3ccc(F)cc3)nc(NCC3CCCCC3)n2)cc1,"Fructose-bisphosphate aldolase (Candida albicans, UniProt Q9URB4)","enzyme activity, inhibitor, absorbance",,,,IC50,516 nM
CC(C)C[C@H](NC(=O)[C@H]1O[C@@H]1C(=O)O)C(=O)NCCCCN=C(N)N,"Cathepsin K (CTSK, Homo sapiens, UniProt P43235)","enzyme activity, inhibitor",,,,IC50,0.975 nM
CC12CCC3C(CCC4CC(O)CCC43C)C1CCC2C#N (stereo not drawn),"5-hydroxytryptamine receptor 1A (HTR1A, Homo sapiens, UniProt P08908)","cAMP, antagonist",,,,IC50,5140 nM
COc1ccccc1-c1n[nH]c2nc(NC3CCN(C(=O)Cc4ccc(F)cc4F)CC3)ncc12,,"bead binding, competition bead pull-down, item: LINJ.24.2150",Leishmania donovani axenic amastigote extract,10 µM,relative to: vehicle,relative abundance,1.02
COC1c2cc(C(C)C)c(O)c(O)c2C23CCCC(C)(C)C2C1OC3=O (stereo not drawn),"Acetylcholinesterase (ACHE, Homo sapiens, UniProt P22303)","enzyme activity, inhibitor",,,,IC50,4.81 nM
CC(C)(C)C(=O)OCOP(=O)(OCOC(=O)C(C)(C)C)C1CCCN(O)C1=O (stereo not drawn),NCI-60 cell line panel,,,,,Log10GI50 mean,-6.27 log M
CN(C)[C@H]1C[C@@]23CC[C@@]4(O2)C(=CC[C@]2(C)[C@@H](c5ccc6ccncc6c5)CC[C@H]24)C=C3[C@@H](O)[C@@H]1O,"Activated CDC42 kinase 1 (TNK2, Homo sapiens, UniProt Q07912)","ATP probe labelling, inhibitor, KiNativ profiling",,0.1 µM,,inhibition,-10.1%
O=C1NC2(CC2)COc2ncc(F)cc2[C@H]2COCCN2c2ccn3ncc1c3n2,,,"Sprague-Dawley rat, male, serum","oral, 20 mg/kg/day, 4 weeks daily, end of recovery period",,potassium,4.79 ± 0.1 mmol/L
O=C(CN1C(=O)C2(CCN(C(=O)c3ccc4[nH]ncc4n3)CC2)c2c(Cl)cccc21)NCC(F)(F)F,"Epithelial discoidin domain-containing receptor 1 (DDR1, Homo sapiens, UniProt Q08345)",ligand displacement,,,,IC50,25 nM
O=C(O)CCn1c(=O)oc2cc(Cl)c(Cl)cc21,"D(2) dopamine receptor (DRD2, Homo sapiens, UniProt P14416)",antagonist,,median value,,IC50,> 100000 nM
Cc1cc(-c2ccc3ccccc3c2)nnc1NCCN1CCN(C)CC1,"Sodium-dependent dopamine transporter (Slc6a3, Rattus norvegicus, UniProt P23977)","transporter uptake, inhibitor",,,,IC50,7200 nM

# A few entries again:
Structure (SMILES),tested on,assay,test system,setting,scale,measurement,result
CC(C)(C)C(=O)OCOP(=O)(OCOC(=O)C(C)(C)C)C1CCCN(O)C1=O (stereo not drawn),NCI-60 cell line panel,,,,,Log10GI50 mean,-6.27 log M
